Measurements gathered from unrelated publications.
Several values in a cell are separate wells, animals, samples, runs or records. Numbers after ± are the reported error.
ppa: Inorganic pyrophosphatase (ppa, Escherichia coli, UniProt P0A7A9)
UniProt P0A7A9, sequence (whole entry, looked up): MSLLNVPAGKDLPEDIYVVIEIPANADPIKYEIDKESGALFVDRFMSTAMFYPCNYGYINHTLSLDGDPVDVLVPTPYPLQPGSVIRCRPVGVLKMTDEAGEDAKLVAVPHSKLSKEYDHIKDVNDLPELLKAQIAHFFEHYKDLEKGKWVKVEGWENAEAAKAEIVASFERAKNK
TDP1: Tyrosyl-DNA phosphodiesterase 1 (TDP1, Homo sapiens, UniProt Q9NUW8)
UniProt Q9NUW8, sequence (whole entry, looked up): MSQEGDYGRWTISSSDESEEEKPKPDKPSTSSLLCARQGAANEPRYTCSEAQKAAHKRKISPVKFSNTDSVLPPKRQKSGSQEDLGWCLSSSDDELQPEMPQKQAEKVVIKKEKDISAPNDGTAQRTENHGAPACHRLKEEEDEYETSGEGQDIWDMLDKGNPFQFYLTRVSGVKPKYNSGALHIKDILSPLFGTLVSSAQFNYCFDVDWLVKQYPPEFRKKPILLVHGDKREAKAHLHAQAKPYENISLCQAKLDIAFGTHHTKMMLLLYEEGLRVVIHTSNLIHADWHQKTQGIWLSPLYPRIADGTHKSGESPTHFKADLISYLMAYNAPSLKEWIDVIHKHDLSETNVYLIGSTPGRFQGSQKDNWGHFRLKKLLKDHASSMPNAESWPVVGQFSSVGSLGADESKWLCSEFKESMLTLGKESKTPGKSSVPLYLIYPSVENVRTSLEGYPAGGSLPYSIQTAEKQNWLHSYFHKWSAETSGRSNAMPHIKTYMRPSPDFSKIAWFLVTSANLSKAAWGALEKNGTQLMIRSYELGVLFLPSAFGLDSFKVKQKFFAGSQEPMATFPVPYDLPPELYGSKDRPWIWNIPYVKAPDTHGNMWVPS
Uncharacterized protein: Uncharacterized protein (Trypanosoma brucei brucei, UniProt Q386Q8)
Tmem97: Sigma intracellular receptor 2 (Tmem97, Rattus norvegicus, UniProt Q5U3Y7)
UniProt Q5U3Y7, sequence (whole entry, looked up): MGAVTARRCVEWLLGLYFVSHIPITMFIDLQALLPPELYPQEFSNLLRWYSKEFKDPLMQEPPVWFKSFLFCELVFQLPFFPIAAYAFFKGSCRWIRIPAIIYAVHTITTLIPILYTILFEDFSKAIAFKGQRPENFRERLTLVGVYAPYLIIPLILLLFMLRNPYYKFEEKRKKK
OfChi-h: Chitinase (OfChi-h, Ostrinia furnacalis, UniProt Q4AE59)
UniProt Q93009, sequence (whole entry, looked up): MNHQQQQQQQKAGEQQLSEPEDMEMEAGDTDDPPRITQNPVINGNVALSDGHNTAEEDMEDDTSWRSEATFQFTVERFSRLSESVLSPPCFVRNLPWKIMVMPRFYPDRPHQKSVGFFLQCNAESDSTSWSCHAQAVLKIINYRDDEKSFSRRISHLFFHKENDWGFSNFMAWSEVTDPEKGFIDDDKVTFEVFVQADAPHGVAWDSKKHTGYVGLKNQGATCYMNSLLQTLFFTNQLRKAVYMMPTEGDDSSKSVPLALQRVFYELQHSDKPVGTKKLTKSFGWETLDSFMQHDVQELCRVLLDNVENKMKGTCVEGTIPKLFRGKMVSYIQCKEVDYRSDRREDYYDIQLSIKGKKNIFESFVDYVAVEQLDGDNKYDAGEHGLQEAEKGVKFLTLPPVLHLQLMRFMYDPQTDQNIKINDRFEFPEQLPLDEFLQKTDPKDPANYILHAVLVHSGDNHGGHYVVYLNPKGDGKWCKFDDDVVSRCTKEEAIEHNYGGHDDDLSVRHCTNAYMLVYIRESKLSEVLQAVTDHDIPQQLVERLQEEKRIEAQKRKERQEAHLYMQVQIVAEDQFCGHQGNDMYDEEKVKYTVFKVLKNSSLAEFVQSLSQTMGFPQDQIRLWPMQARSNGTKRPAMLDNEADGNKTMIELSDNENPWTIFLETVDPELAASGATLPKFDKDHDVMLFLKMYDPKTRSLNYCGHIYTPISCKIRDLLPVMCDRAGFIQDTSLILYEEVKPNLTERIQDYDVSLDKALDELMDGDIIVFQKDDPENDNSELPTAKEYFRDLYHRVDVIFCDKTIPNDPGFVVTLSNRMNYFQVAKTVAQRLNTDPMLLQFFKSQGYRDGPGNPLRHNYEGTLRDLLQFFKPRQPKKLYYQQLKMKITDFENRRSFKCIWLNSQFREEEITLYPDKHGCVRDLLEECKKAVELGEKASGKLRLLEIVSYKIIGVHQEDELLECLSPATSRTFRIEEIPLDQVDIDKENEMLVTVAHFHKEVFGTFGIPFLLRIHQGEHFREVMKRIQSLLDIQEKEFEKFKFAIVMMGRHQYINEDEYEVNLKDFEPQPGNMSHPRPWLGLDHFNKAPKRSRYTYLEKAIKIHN
UniProt Q9GZV3, sequence (whole entry, looked up): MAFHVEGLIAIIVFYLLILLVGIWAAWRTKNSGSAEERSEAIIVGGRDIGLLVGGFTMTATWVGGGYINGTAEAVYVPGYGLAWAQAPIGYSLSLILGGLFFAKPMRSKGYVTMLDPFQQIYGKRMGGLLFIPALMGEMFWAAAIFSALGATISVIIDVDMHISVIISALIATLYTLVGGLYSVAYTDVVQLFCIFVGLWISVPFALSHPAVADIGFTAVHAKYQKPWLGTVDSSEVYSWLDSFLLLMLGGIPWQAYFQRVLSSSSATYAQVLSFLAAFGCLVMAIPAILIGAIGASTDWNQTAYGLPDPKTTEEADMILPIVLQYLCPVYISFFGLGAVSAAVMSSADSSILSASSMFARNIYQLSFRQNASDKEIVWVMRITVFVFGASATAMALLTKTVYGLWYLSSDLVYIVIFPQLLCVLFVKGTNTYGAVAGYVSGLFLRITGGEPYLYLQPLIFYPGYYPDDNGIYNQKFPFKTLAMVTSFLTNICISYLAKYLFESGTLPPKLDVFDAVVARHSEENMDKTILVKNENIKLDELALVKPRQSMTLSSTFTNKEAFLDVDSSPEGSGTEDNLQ
UniProt Q9P0X4, sequence (whole entry, looked up): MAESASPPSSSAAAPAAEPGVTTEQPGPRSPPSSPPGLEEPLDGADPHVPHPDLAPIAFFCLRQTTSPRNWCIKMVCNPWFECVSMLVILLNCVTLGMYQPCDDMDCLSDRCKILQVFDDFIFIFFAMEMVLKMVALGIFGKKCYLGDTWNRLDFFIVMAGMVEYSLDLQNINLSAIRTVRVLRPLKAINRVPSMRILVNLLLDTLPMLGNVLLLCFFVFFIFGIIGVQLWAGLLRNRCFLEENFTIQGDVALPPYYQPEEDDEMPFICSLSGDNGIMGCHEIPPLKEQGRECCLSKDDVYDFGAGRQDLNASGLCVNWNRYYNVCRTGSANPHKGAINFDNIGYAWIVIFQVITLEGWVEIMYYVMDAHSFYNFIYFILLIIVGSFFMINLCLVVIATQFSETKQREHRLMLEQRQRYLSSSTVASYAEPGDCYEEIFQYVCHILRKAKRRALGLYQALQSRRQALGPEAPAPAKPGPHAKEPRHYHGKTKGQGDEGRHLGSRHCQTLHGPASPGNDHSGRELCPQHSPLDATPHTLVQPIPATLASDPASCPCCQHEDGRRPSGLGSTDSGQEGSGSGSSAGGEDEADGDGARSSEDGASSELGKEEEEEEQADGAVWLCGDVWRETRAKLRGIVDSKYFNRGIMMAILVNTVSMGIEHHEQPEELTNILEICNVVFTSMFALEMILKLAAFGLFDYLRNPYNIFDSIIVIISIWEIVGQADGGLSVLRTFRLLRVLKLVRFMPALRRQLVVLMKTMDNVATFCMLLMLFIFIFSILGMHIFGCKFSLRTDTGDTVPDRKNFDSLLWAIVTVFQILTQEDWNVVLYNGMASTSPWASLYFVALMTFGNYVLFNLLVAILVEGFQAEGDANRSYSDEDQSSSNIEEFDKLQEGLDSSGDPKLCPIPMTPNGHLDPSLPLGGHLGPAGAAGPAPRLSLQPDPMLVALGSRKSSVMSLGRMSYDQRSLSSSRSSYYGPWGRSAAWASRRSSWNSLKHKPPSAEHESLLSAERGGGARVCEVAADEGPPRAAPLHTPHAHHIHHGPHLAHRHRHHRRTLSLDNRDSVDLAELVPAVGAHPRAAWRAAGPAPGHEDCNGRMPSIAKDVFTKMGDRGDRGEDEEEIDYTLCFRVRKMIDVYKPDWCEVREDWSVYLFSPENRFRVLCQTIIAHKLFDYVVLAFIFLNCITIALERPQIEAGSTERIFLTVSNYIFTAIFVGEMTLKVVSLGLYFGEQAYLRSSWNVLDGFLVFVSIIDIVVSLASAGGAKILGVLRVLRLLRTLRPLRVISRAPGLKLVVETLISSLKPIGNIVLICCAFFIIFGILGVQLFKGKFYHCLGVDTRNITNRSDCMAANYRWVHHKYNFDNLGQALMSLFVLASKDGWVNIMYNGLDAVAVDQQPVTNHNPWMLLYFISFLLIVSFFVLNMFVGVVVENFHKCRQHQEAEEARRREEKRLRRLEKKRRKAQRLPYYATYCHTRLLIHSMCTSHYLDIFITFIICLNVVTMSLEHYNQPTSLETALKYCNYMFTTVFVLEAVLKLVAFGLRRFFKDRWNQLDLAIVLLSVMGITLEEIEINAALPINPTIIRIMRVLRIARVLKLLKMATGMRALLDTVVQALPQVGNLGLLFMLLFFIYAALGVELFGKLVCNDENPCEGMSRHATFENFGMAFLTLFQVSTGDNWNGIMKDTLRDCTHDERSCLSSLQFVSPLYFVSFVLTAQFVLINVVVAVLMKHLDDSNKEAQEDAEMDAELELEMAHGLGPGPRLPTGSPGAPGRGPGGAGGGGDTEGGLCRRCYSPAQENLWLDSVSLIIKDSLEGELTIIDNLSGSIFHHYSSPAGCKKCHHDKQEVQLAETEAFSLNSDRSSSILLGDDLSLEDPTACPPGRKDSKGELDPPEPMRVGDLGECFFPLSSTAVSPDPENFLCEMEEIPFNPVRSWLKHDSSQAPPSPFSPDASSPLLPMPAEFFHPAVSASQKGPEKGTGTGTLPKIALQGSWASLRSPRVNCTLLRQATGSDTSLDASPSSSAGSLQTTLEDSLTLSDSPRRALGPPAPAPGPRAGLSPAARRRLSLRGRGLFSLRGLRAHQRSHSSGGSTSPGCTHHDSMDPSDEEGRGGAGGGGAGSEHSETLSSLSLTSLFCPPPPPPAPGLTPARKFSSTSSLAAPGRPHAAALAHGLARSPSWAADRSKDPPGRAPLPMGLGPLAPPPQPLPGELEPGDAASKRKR
UniProt Q99028, sequence (whole entry, looked up): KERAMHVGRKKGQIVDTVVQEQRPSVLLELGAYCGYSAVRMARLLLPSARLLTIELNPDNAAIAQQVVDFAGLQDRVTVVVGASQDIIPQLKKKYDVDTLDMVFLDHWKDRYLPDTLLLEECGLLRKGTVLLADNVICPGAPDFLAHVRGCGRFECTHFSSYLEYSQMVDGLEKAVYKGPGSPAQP

OCc1ccc(C2NCCc3cc(O)c(O)cc32)o1 (centres unmarked)
inhibition (tyrosinase; enzyme activity, inhibitor; 100 µM, with: levodopa): 24.1 ± 2.41%

COc1cc(NC(=O)N2CCSc3ccccc32)cc(OC)c1
inhibition (ppa; enzyme activity; 30 µM): -4.4%

COc1cccc(OC)c1-c1cc(C(=O)NC2(C(=O)O)C3CC4CC(C3)CC2C4)nn1-c1ccc(C(=O)NCCNC(=O)[C@H](CCCCNC(=O)[C@H](CC(C)C)NC(=O)C2OC2C(=O)O)NC(=O)CN2CCN(CC(=O)[O-])CCN(CC(=O)[O-])CCN(CC(=O)[O-])CC2)cc1C(C)C.[177Lu+3] (mixture of isomers)
tracer uptake (HT-29 tumour model; host not given, pancreas; 7 days, tumour-bearing): 0.21 %ID/g

O=C(N/C(=C/c1ccc(Br)cc1)C(=O)N1CCCCC1)c1ccccc1
inhibition (KCNT1 (Homo sapiens, UniProt Q5JUK3); ion current, inhibitor, patch clamp; HEK293; 10 µM): > 40%

Cc1csc2sc(C=NOCc3ccc4nc(-c5ccccc5)c(Nc5ccc(C(=O)O)cc5)n4c3)c(C)c12
inhibition (TDP1; enzyme activity, inhibitor; 100 µM, unpurified compound): 12.2%

CC(=O)C1=C(c2ccc(F)cc2)N(C(C)=O)n2cnnc2S1
inhibition (Uncharacterized protein; enzyme activity, inhibitor, coupled colorimetric; 30 µM, with: E. coli pyrophosphatase coupling): 38.4%

CN(C)c1nc(-c2ccccc2)c(C=NOCc2ccc3nc(-c4ccccc4)c(Nc4ccc(C(=O)O)cc4)n3c2)c(=O)o1
inhibition (TDP1; enzyme activity, inhibitor; 100 µM, unpurified compound): 1.3%

CC(=O)O[C@@]1(C)CN(Cc2ccccc2)[C@H]2C[C@@H]1CC(=O)[C@@H]2C
inhibition (Tmem97; ligand displacement, radioligand; 1 µM): 0%

CN(C)c1nc(NCc2cc(Cl)c(F)cc2F)c(/N=N/c2ccc(Cl)cc2)c(N(C)C)n1
inhibition (OfChi-h; enzyme activity, inhibitor, fluorescence; 1 µM): 91.3%

CCCC[C@H](NC(=O)COCCOCCNC(=O)CN1CCN(CC(=O)O)CCN(CC(=O)O)CC1)C(=O)N[C@H]1CC(=O)NCCCC[C@@H](C(N)=O)NC(=O)[C@H](Cc2c[nH]c3ccccc23)NC(=O)[C@H](CCCNC(=N)N)NC(=O)[C@@H](Cc2ccccc2)NC(=O)[C@H](Cc2c[nH]cn2)NC1=O [technetium-99m labelled]
tissue uptake (C57 mouse, muscle; intravenous, 0.037 MBq, 4 h): 0.03 ± 0.02 %ID/g

CN(C)c1cc(N)c2cc(Cl)ccc2n1
inhibition (ppa; inhibitor, counter-screen, coupling enzyme alone; 30 µM): 38.9%

CC(C)Cn1c(SCC(=O)N2CCc3ccccc3C2)nc2cc(Cl)ccc2c1=O
inhibition (benzodiazepine site rat; binding; rat brain; 10 µM): 25%

Oc1ccc(C2NCCc3cc(O)c(O)cc32)cc1 (centres unmarked)
inhibition (tyrosinase; enzyme activity, inhibitor; 100 µM, with: levodopa): 40.5 ± 2.43%

C[Si]1(C[C@H](CN)CC(=O)O)CCCC1
inhibition (Tmem97; ligand displacement, radioligand; 70 µM): 2%

CN(C)c1nc(NCc2ccc(F)cc2F)c(/N=N/c2ccc(Cl)cc2)c(N(C)C)n1
inhibition (OfChi-h; enzyme activity, inhibitor, fluorescence; 1 µM): 90.1%

C[Si](C)(C)C[C@H](CN)CC(=O)O
inhibition (CCKAR (Homo sapiens, UniProt P32238); ligand displacement, radioligand; 250 µM): -1%

O=C(O)c1ccc(Nc2c(-c3ccccc3)nc3ccc(CON=CCc4ccccc4)cn23)cc1 (mixture of isomers)
inhibition (TDP1; enzyme activity, inhibitor; 100 µM, unpurified compound): 22.9%

CO[C@@H](C)c1c(NC(=O)Nc2cnc(-n3nccn3)c(C(F)(F)F)c2)cnc2sc(C)nc12
inhibition (Nociceptin receptor (OPRL1, Homo sapiens, UniProt P41146); ligand displacement, radioligand; 10 µM): 8.9%

O=C(CSc1nnc(-c2ccco2)c(-c2ccco2)n1)c1ccc(Cl)s1
inhibition (ppa; inhibitor, counter-screen, coupling enzyme alone; 30 µM): 6.7%

O=C1c2sc(-c3ccc(N4CCC(CO)CC4)nc3F)nc2CCN1c1cccnc1
inhibition (SLC5A7 (Homo sapiens, UniProt Q9GZV3); ligand displacement, radioligand; 1 µM): 5%

NC(=O)c1cc[n+](CC2=C(C(=O)O)N3C(=O)C(NC(=O)C(c4ccccc4)S(=O)(=O)[O-])C3SC2)cc1 (centres unmarked)
inhibition (Protein tyrosine phosphatase type IVA 3, with CNNM4 CBS domain (PTP4A3, Homo sapiens, UniProt O75365); protein-protein interaction, HTRF; 10 µM): 94.7 ± 0.4%

C/C=C/C(=O)Nc1ccc2nc(NCCCCCN(C)C)nc(NCCCCCCN(C)C)c2c1
inhibition (EHMT1 (Homo sapiens, UniProt Q9H9B1); enzyme activity, inhibitor, radiometric; 10 µM): 20%

Cc1cc(Cl)cc(-c2ccnc3cc(CN4C(=O)C5C(C4=O)C5(C)C)sc23)c1C[C@@H]1CNCCO1 (some centres unmarked)
inhibition (USP7 (Homo sapiens, UniProt Q93009); enzyme activity, inhibitor; 50 µM): 100% and 102%

Cc1cc(C=NOCc2ccc3nc(-c4ccccc4)c(Nc4ccc(C(=O)O)cc4)n3c2)c(C)n1CC1COc2ccccc2O1 (mixture of isomers)
inhibition (TDP1; enzyme activity, inhibitor; 100 µM, unpurified compound): 37.9%

Cc1nc2c(F)cc(-c3nc(Nc4ccc(CNC(=O)CCCCCCC(=O)NO)cc4)ncc3F)cc2n1C(C)C
inhibition (PIK3C2A (Homo sapiens, UniProt O00443); enzyme activity, inhibitor; 1 µM): 3%

CC1=NN(c2ccccc2F)C(=O)/C1=N\Nc1ccc(S(N)(=O)=O)cc1
inhibition (bovine α-glucosidase; enzyme activity, inhibitor, glucose oxidase; 50 µg/mL, with: maltose): 34.9%

O=C1c2sc(-c3ccc(N4CCC(F)C4)nc3F)nc2CCN1c1cccnc1 (centres unmarked)
inhibition (GABA-A receptor; GABA-A site (alpha1/beta2 interface), with gamma-2 subunit (Homo sapiens, UniProt P14867+P47870); radioligand binding; 1 µM, with: agonist radioligand): -14%

CCNc1sc(C(C)=O)c(N)c1C#N
inhibition (ppa; inhibitor, counter-screen, coupling enzyme alone; 30 µM): 39.5%

CC1Cc2ccccc2N1C(=O)CN1CCN(Cc2ccccc2)CC1 (centres unmarked)
inhibition (HTR4 (Homo sapiens, UniProt Q13639); radioligand binding; concentration not given): 29.4%

CC(C)[C@H](NC(=O)[C@@H]1CSSC(C)(C)[C@H](NC(=O)[C@@H](N)CC(=O)O)C(=O)N[C@@H](Cc2ccccc2)C(=O)N[C@H](Cc2c[nH]c3ccccc23)C(=O)N[C@@H](CCCN)C(=O)N[C@@H](Cc2ccc(O)cc2)C(=O)N1)C(=O)O
EC50 (UTS2R (Homo sapiens, UniProt Q9UKP6); Gi1 activation, agonist, BRET2; HEK293): 13.8 nM

COc1ccc(S(=O)(=O)N2CCc3ccccc3C2)cc1N1CCN(C(=O)c2ccc(F)cc2C(F)(F)F)CC1
inhibition (COMT (Sus scrofa, UniProt Q99028); enzyme activity, inhibitor; 1 µM): -1.9%

CCC(=O)N(C)c1ccc(Cl)c(Cl)c1
inhibition (NTSR1 (Homo sapiens, UniProt P30989); ligand displacement, radioligand; 10 µM): < 10%

CC(=O)C12NC(C)(C)CC1(C)C(=O)C1=C2c2c(c3c4n2C(C)(C)CC2=C4C4(CC(C)(C)NC(C)(C4)C2=O)CC3(C)C)C(=O)C(C)(C)N1 (single isomer, unassigned; (+))
inhibition (CACNA1I (Homo sapiens, UniProt Q9P0X4); ion current, antagonist, whole-cell patch clamp; HEK293T; 10 µM): 3.06 ± 0.05%

COCC(=O)N1CCc2cc(-c3csc(NC(=O)c4cc(OC)cc(OC)c4)n3)ccc21
inhibition (Adra1a (Rattus norvegicus, UniProt P43140); ligand displacement, radioligand; 10 µM): 3%

O=C(O)c1ccc(Nc2c(-c3ccccc3)nc3ccc(CON=Cc4cccn4-c4sc5c(c4C(=O)O)CCCC5)cn23)cc1
inhibition (TDP1; enzyme activity, inhibitor; 100 µM, unpurified compound): 73.6%

C[N+](C)(CCCN1c2ccccc2CCc2ccc(Cl)cc21)CC(=O)c1ccccc1
inhibition (ppa; inhibitor, counter-screen, coupling enzyme alone; 30 µM): 32.8%

CC(C)C[C@H](NC(=O)[C@@H](CCCCNC(=O)[C@@H](Cc1ccccc1)NC(=O)CCCCCNC(=O)CN1CCN(CC(=O)O)CCN(CC(=O)O)CCN(CC(=O)O)CC1)NC(=O)[C@H](Cc1ccc(O)cc1)NC(=O)[C@H](CO)NC(=O)[C@H](Cc1c[nH]c2ccccc12)NC(=O)[C@H](Cc1c[nH]cn1)NC(=O)[C@@H]1CCC(=O)N1)C(=O)N[C@@H](CCCNC(=N)N)C(=O)N1CCC[C@H]1C(=O)NCC(N)=O [indium-111 labelled]
tissue uptake (female athymic nude mice, kidneys; intravenous, 0.037 MBq, 1 h): 6.65 ± 1.45 %ID/g

CC(=O)c1cnc(N)nc1N1CC[C@H]1c1nn2ccc(Cl)c2c(=O)n1-c1ccccc1
inhibition (TACR3 (Homo sapiens, UniProt P29371); ligand displacement, radioligand; 10 µM): 10%

N#CCn1cc(C=NOCc2ccc3nc(-c4ccccc4)c(Nc4ccc(C(=O)O)cc4)n3c2)c2ccccc21 (mixture of isomers)
inhibition (TDP1; enzyme activity, inhibitor; 100 µM, unpurified compound): 77.8%

CN(Cc1ccc(/C=C/C(=O)NO)cc1)CC12CC3CC(CC(C3)C1)C2
inhibition (human M2 receptor; antagonist radioligand binding; 0.05 µM): -12%

COC1CN([C@H]2CC[C@H]([C@@]3(C)Oc4c(Cl)cc(C(=O)NCc5c(SC)cc(C)[nH]c5=O)c(C)c4O3)CC2)C1
log2 fold change (RNA-seq, refers to: PRG2; human, whole blood; dose not given, 24 h; relative to: pretreatment baseline): 6.59

CS(=O)(=O)Nc1cccc(-c2csc3cnc(Nc4ccc(N5CCN(CCCCCOc6cccc7c6C(=O)N(C6CCC(=O)NC6=O)C7=O)CC5)cc4)nc23)c1 (centres unmarked)
inhibition (ILK (Homo sapiens, UniProt Q13418); kinase probe labelling, binder, KiNativ ATP-acylphosphate LC-MS; MOLT-4 live cells; 1 µM): 17.2%

Cn1c(=O)n(C)c2cc([N+](=O)[O-])c(C=NOCc3ccc(-c4nc5cc(-c6ccccc6)ccn5c4Nc4ccc(C(=O)O)cc4)cc3)cc21
inhibition (TDP1; enzyme activity, inhibitor; 100 µM, unpurified compound): 101%

COc1ccc2c(c1OC)C(=O)N(c1nc3ccccc3s1)C2
inhibition (ppa; inhibitor, counter-screen, coupling enzyme alone; 30 µM): -4%

Cn1ccc2cc(-n3c(=O)[nH]c4sc5c(c4c3=O)CCCC5)ccc21
inhibition (EDNRB (Homo sapiens, UniProt P24530); cell-free assay; 10 µM): -6%

COc1cccc(NC(=O)N2CCOc3ccccc32)c1
inhibition (Uncharacterized protein; enzyme activity, inhibitor, coupled colorimetric; 30 µM, with: E. coli pyrophosphatase coupling): 30.4%

CS(=O)(=O)Nc1cccc(C=NOCc2ccc3nc(-c4ccccc4)c(Nc4ccc(C(=O)O)cc4)n3c2)c1
inhibition (TDP1; enzyme activity, inhibitor; 100 µM, unpurified compound): 7.1%

For quick reference, copied from above:
COCC(=O)N1CCc2cc(-c3csc(NC(=O)c4cc(OC)cc(OC)c4)n3)ccc21
inhibition (Adra1a (Rattus norvegicus, UniProt P43140); ligand displacement, radioligand; 10 µM): 3%

O=C(O)c1ccc(Nc2c(-c3ccccc3)nc3ccc(CON=Cc4cccn4-c4sc5c(c4C(=O)O)CCCC5)cn23)cc1
inhibition (TDP1; enzyme activity, inhibitor; 100 µM, unpurified compound): 73.6%

C[N+](C)(CCCN1c2ccccc2CCc2ccc(Cl)cc21)CC(=O)c1ccccc1
inhibition (ppa; inhibitor, counter-screen, coupling enzyme alone; 30 µM): 32.8%

CC(C)C[C@H](NC(=O)[C@@H](CCCCNC(=O)[C@@H](Cc1ccccc1)NC(=O)CCCCCNC(=O)CN1CCN(CC(=O)O)CCN(CC(=O)O)CCN(CC(=O)O)CC1)NC(=O)[C@H](Cc1ccc(O)cc1)NC(=O)[C@H](CO)NC(=O)[C@H](Cc1c[nH]c2ccccc12)NC(=O)[C@H](Cc1c[nH]cn1)NC(=O)[C@@H]1CCC(=O)N1)C(=O)N[C@@H](CCCNC(=N)N)C(=O)N1CCC[C@H]1C(=O)NCC(N)=O [indium-111 labelled]
tissue uptake (female athymic nude mice, kidneys; intravenous, 0.037 MBq, 1 h): 6.65 ± 1.45 %ID/g
